Measurements of several laboratories.
Numbered parts are unrelated; each lists some results of a single study. Changes are numbered by the printed parent chain.
Chain of UniProt Q9C5W9 (whole entry, looked up): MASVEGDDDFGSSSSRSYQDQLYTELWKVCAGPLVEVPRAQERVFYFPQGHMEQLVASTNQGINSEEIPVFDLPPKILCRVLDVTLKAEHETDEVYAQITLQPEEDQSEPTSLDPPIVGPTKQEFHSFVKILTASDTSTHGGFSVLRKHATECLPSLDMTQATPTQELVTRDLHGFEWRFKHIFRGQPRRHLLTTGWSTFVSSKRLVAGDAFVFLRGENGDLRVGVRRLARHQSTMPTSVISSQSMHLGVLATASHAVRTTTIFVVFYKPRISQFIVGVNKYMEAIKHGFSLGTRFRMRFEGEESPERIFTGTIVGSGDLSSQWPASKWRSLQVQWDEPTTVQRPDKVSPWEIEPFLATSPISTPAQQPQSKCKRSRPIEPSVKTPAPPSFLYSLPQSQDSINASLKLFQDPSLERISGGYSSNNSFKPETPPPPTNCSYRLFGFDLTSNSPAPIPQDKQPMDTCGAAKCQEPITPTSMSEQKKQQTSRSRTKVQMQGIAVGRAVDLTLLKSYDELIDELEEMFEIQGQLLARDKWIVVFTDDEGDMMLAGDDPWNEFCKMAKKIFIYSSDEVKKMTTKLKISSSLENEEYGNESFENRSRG
Chain of UniProt O24407 (whole entry, looked up): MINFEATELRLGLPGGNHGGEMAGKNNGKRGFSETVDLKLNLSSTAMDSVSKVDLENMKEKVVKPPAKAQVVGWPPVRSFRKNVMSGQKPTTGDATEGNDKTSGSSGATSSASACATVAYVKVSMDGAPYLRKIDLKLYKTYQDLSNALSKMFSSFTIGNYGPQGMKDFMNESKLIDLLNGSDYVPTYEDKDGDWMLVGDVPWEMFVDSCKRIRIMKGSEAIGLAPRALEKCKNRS
Chain of UniProt Q9ZTX8 (whole entry, looked up): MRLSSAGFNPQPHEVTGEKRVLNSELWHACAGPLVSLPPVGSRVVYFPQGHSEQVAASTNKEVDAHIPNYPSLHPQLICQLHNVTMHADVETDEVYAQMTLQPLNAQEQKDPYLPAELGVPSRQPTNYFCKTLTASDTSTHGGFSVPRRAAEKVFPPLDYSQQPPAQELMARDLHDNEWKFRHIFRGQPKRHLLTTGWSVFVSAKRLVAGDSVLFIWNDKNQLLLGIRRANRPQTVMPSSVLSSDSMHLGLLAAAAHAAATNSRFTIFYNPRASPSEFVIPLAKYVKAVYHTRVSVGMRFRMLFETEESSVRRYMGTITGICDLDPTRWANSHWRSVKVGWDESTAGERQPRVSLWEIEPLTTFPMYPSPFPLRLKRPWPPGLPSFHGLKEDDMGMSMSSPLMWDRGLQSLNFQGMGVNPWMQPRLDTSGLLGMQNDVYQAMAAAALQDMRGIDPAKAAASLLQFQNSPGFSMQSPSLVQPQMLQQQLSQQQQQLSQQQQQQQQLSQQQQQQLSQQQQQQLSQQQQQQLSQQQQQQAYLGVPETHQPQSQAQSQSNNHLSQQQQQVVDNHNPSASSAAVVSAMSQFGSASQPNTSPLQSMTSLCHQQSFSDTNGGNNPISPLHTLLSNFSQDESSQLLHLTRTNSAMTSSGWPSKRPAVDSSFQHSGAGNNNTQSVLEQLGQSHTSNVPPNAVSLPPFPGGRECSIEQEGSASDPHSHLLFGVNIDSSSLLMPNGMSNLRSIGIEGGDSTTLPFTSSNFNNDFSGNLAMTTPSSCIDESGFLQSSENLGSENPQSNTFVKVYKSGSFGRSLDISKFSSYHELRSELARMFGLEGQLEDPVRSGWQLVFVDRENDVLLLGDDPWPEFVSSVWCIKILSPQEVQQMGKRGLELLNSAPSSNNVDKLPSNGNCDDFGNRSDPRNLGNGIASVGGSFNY
Chain of UniProt Q93WC4 (whole entry, looked up): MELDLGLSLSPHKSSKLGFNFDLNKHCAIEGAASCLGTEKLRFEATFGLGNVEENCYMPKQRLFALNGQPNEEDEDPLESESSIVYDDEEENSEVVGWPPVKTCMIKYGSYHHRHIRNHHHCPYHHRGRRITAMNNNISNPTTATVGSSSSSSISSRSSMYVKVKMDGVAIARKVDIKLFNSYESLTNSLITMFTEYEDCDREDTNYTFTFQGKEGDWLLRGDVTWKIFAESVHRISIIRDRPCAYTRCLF

Study 1 — technique: protein binding microarray; molecule type: double-stranded DNA, one strand shown; medium: in vitro; tested at: not given; baseline: not given; direction: higher = stronger binding
Target: Histone acetyltransferase KAT6A, winged helix 1, GST fusion (KAT6A, Homo sapiens, UniProt Q92794, residues 1-85)
Setting: 8-mer, flanks averaged, mean of 2 arrays, mostly near background
Target sequence (chain): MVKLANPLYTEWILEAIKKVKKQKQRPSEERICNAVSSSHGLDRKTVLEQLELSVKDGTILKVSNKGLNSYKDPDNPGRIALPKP
With `AAAGATTT` the E-score was -0.031.
With `CAGCTTTA` the E-score was -0.181.
For `CATTCAAA`, the E-score was -0.081.
`AAATTTGG` has an E-score of -0.354.
`ACTCTCGC` gave an E-score of 0.11.
`ACTCTCTG` gave an E-score of -0.149.
With `CCTACCCC` the E-score was 0.0165.
With `ACAAACGA` the E-score was -0.111.

Study 2 — target: CCND2, cyclin fold, Cln2 fusion (human); technique: yeast growth competition, sequencing; medium: yeast; setting: weak parent motif; baseline: not given; direction: higher = stronger binding
Parent: viral docking peptide; KGVKRKLFAEDSS; partner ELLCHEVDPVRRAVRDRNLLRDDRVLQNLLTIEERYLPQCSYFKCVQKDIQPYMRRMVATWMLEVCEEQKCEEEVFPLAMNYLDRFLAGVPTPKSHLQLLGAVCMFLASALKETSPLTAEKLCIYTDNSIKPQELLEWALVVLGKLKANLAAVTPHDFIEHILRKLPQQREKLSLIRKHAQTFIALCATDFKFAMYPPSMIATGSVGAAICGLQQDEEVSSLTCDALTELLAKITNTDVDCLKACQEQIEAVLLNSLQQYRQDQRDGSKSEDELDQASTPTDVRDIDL
`KGVKRSLFAEDSS [K6S]`: “normalised enrichment score” -0.163.
`KGVKRKLFFEDSS [A9F]` — result for “normalised enrichment score”: 0.231.
Under “normalised enrichment score”, `KGVKCKLFAEDSS [R5C]` is recorded as 0.205.
Under “normalised enrichment score”, `KGVDRKLFAEDSS [K4D]` is recorded as -0.166.
Under “normalised enrichment score”, `KGVKQKLFAEDSS [R5Q]` is recorded as 0.336.
Under “normalised enrichment score”, `KGFKRKLFAEDSS [V3F]` is recorded as 0.322.
`KGVCRKLFAEDSS [K4C]` — result for “normalised enrichment score”: 0.00334.
`KGVKRKLFAEDTS [S12T]`: “normalised enrichment score” 0.106.
For `KGVWRKLFAEDSS [K4W]`, “normalised enrichment score” read -0.412.
`KGVKRKKFAEDSS [L7K]`: “normalised enrichment score” 0.612.
`KGVKAKAFAEDSS [R5A L7A]` — result for “normalised enrichment score”: 0.0379.
`KGVKRKLYAEDSS [F8Y]`: “normalised enrichment score” -0.225.
For `KGVKRKLWAEDSS [F8W]`, “normalised enrichment score” read -0.336.
Under “normalised enrichment score”, `KGVKRKLFSEDSS [A9S]` is recorded as -0.0473.
`KGVKRKLFAEDQS [S12Q]` — result for “normalised enrichment score”: -0.736.
`KGVKRKLFAEQSS [D11Q]`: “normalised enrichment score” -0.444.
`KGVGRKLFAEDSS [K4G]` — result for “normalised enrichment score”: 0.0936.
For `KGEKRKLFAEDSS [V3E]`, “normalised enrichment score” read 0.25.
Under “normalised enrichment score”, `KGLKRKLFAEDSS [V3L]` is recorded as 0.205.
`KGVKRKLFAEDRS [S12R]`: “normalised enrichment score” 0.15.
`KGVKRKEFAEDSS [L7E]`: “normalised enrichment score” 0.323.
`KGVKKKLLAEDSS [R5K F8L]`: “normalised enrichment score” 0.527.
For `KGVKRKLFAMDSS [E10M]`, “normalised enrichment score” read -0.4.
Under “normalised enrichment score”, `KGVKRKLFQEDSS [A9Q]` is recorded as -0.082.
`KTVKRKLFAEDSS [G2T]`: “normalised enrichment score” 0.394.

Study 3 — technique: RNA Bind-n-Seq; molecule type: RNA; medium: in vitro; tested at: 200 nM; setting: whole 134-nt RNA, ends assumed; together with: 150 mM LiCl; baseline: input library; direction: higher = stronger binding; all molecules: 7-deaza-guanosine replaces G
Target: Fragile X messenger ribonucleoprotein 1, C-terminal low-complexity region (Fmr1, Mus musculus, UniProt P35922)
`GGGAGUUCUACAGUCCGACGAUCAGUCCUGUGCUACACAUCGUAUGUACCGAAUCGGGAAAGGGUUUUUGGGUUUUUGGGAAAGUAUUAUGUUACGCCGUUCGGAUCUGCACUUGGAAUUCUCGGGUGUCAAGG` gave a log2 enrichment of -2.76.
`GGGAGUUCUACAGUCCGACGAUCCACAGACAACACGCACCCACACAGACACAGAGGGAAGGGGUUGGGAUGGGGACAGGGUGCACAGCAGGAAAGGGUAGGACCCCAGCCCCUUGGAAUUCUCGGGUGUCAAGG` gave a log2 enrichment of 0.403.
With `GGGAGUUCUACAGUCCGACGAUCAAGUCCUGUGCUACACAUCGUAUGUACCGAAUCGGGGAGGGGUUUUUGGGGAGGGGAAAGUAUUAUGUUACGCCGUUCGGAUCUGCACUUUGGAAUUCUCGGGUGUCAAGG` the log2 enrichment was 0.431.
For `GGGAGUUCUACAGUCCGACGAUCCACAGACAACACGCACCCACAGAGACACAGAGGGAAGGGGUUGGGAUGGGGACAGGGUGCACAGCAGGGCGGGGUAGGACCCCAGCCCCUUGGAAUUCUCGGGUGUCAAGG`, the log2 enrichment was 1.04.
For `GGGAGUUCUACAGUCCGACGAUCGCAGGAAGUAAAAACAAAUGGAAAUGCUUCGGAUAGUGGCAGGGGUGGGGGUUGCUAAGGAAAGGGGGGGAUGGGAGUGGGUAAAGAGUUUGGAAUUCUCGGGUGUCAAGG`, the log2 enrichment was 1.61.
For `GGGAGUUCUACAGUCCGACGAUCGCAGGAAGUAAAAACAAAUGGAAAUGCUUCGGAUAGUGGCAGGGGUGGCGGUUGCUAAGGAAAGGGUGGGAUGGGAGUGGGUAAAGAGUUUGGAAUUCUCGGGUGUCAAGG`, the log2 enrichment was 1.27.
`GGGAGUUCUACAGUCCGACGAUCUAACUUUAGAGGAGGAUCUGAUGGAUAUGGCAGUGGACGUGGAUUUGGGGAUGGCUAUAAUCGGUAUGGAGGAGGACCUGGAGGUGGCAAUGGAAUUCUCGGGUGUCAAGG` gave a log2 enrichment of 0.835.
The log2 enrichment of `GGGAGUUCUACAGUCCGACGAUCAAGUCCUGUGCUACACAUCGUAUGUACCGAAUCGGGGAGGGGUUUUUGGGGUGGGGAAAGUAUUAUGUUACGCCGUUCGGAUCUGCACUUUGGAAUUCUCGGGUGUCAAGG` is reported as -0.00925.

Study 4 — technique: universal PBM; molecule type: double-stranded DNA, one strand shown; medium: in vitro; tested at: 600 nM; direction: higher = stronger binding
Target: Sal-like protein 4, full length isoform A (SALL4, Homo sapiens, UniProt Q9UJQ4, residues 1-1053)
Chain of UniProt Q9UJQ4 (whole entry, looked up): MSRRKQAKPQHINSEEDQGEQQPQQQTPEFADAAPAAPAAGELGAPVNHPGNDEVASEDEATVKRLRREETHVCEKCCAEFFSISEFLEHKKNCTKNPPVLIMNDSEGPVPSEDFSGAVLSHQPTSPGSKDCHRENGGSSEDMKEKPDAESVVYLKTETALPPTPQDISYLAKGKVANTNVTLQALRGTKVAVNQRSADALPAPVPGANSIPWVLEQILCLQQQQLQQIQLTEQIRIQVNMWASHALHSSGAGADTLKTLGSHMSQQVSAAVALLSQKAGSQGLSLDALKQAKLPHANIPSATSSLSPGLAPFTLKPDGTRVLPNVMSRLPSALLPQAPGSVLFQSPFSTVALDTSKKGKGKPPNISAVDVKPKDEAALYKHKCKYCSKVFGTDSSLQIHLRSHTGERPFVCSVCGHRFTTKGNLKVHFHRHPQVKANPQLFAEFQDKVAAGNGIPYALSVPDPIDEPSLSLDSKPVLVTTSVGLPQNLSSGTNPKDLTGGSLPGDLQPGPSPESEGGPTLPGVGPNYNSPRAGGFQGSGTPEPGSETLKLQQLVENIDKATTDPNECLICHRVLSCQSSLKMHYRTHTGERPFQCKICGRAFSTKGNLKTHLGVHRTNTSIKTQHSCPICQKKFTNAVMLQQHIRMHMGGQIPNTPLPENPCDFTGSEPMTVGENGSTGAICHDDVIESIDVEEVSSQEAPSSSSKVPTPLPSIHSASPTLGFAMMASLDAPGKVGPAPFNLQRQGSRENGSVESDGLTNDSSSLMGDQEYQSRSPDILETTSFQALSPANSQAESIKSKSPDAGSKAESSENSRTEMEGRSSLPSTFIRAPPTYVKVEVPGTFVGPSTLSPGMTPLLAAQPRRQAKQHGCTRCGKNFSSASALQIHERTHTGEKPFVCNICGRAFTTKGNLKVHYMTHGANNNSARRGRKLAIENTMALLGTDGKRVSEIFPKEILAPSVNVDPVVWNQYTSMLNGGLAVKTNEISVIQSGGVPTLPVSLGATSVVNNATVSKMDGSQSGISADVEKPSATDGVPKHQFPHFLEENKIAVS
Setting: 8-mer, flanks averaged, mean of replicates
`AATGAGGC` has an E-score of -0.131.
`CCCAGCGC` gave an E-score of -0.392.
`CCCTCCCG` has an E-score of -0.212.
For `CCGTGAGA`, the E-score was -0.259.
`CACCTGAC` has an E-score of -0.105.
The E-score of `ATCTCATG` is reported as 0.0241.
`ACCTGCAC` gave an E-score of -0.135.
The E-score of `AGCTCAGC` is reported as -0.256.

Study 5 — Molecule: B1 (IAA13); technique: two-hybrid; baseline: out of 4 tests; direction: higher = firmer interaction
B1: IAA13 (Arabidopsis thaliana, UniProt Q38831); chain MITELEMGKGESELELGLGLSLGGGTAAKIGKSGGGGAWGERGRLLTAKDFPSVGSKRAADSASHAGSSPPRSSSQVVGWPPIGSHRMNSLVNNQATKSAREEEEAGKKKVKDDEPKDVTKKVNGKVQVGFIKVNMDGVAIGRKVDLNAHSSYENLAQTLEDMFFRTNPGTVGLTSQFTKPLRLLDGSSEFVLTYEDKEGDWMLVGDVPWRMFINSVKRLRVMKTSEANGLAARNQEPNERQRKQPV
The positive tests was 0 (IAA29 (Arabidopsis thaliana, UniProt Q93WC4)).
The positive tests was 4 (ARF6 790-935 (Arabidopsis thaliana, UniProt Q9ZTX8)).
It gave 0 for positive tests (ARF18 482-602 (Arabidopsis thaliana, UniProt Q9C5W9)).
It gave 2 for positive tests (IAA16 (Arabidopsis thaliana, UniProt O24407)).

Excerpt of the above (study 2):
Under “normalised enrichment score”, `KGVKRKLFSEDSS [A9S]` is recorded as -0.0473.
`KGVKRSLFAEDSS [K6S]`: “normalised enrichment score” -0.163.
`KGVKRKLFAEQSS [D11Q]`: “normalised enrichment score” -0.444.
`KGVKRKLFAEDRS [S12R]`: “normalised enrichment score” 0.15.
`KGVKRKKFAEDSS [L7K]`: “normalised enrichment score” 0.612.
Under “normalised enrichment score”, `KGVDRKLFAEDSS [K4D]` is recorded as -0.166.
